Measured values collected from several papers.
± marks the error that the study gave.

O=C(O)CCC(NP(=O)(O)OCCC[C@@H](NC(=O)CCC(NC(=O)c1ccc([18F])cc1)C(=O)O)C(=O)O)C(=O)O (stereo partly shown)
tracer uptake (PC-3 tumour model; host not given, bone; intravenous, 2 h, tumour-bearing): 0.24 %ID/g

COc1ccc(CNc2nc(N3CCC[C@H]3CO)ncc2C(=O)NNC(=O)c2cnc(N3CCC[C@H]3CO)nc2NCc2ccc(OC)c(Cl)c2)cc1Cl
revertant count (Salmonella typhimurium; TA1535; 125 µg/plate, 48 h, together with: rat liver S9): 35 ± 5

CN(C)CC1CCCCC1(O)c1cccc(O)c1 (stereo not shown)
Papp B→A (Caco-2; 100 µM, 3 h, pH 7.4): 13.7 ×10⁻⁶ cm/s

O=C(O)CCC(NP(=O)(O)OCCC[C@@H](NC(=O)CCC(NC(=O)CCCCCNC(=O)CCCCCNC(=O)c1ccc([18F])cc1)C(=O)O)C(=O)O)C(=O)O (stereo partly shown)
tracer uptake (PC-3 tumour model; host not given, tumour; intravenous, 2 h, tumour-bearing): 0.27 %ID/g

CC(=O)NC(Cc1ccc(Br)c(Cl)c1)C(=O)N[C@@H](C)C(=O)N1CCC[C@H]1C(=O)N1CCC[C@H]1C(=O)N[C@@H](CCC(=O)O)C(=O)N[C@@H](Cc1c[nH]cn1)C(=O)N[C@@H](CO)C(=O)N[C@H](C(=O)N[C@@H](C)C(N)=O)[C@@H](C)OP(=O)(O)O (stereo partly shown)
inhibition (Serine/threonine-protein kinase PLK2 (PLK2, Homo sapiens, UniProt Q9NYY3); 10 µM): 4.09 ± 0.23%

CCCC[C@H](NC(=O)CNC(=O)CNC(=O)c1ccc(NN)nc1)C(=O)N[C@H]1CC(=O)NCCCC[C@@H](C(N)=O)NC(=O)[C@H](Cc2c[nH]c3ccccc23)NC(=O)[C@H](CCCNC(=N)N)NC(=O)[C@@H](Cc2ccccc2)NC(=O)[C@H](Cc2c[nH]cn2)NC1=O [technetium-99m labelled]
uptake ratio (C57 mouse, B16/F1 melanoma; 2 h, together with: NDP-MSH blockade; baseline: tumour over blood): 1.88

CCN(Cc1ccccc1)C(=O)CCc1nc(CN2CCN(C(=O)Cc3ccc(OC)c(OC)c3)CC2)no1
current fold increase (Potassium voltage-gated channel subfamily KQT member 5 (KCNQ5, Homo sapiens, UniProt Q9NR82); potassium current, opener, whole-cell patch clamp; transfected cells; 10 µM; baseline: control): 1.8 ± 0.14

COc1cc(C(=O)NCCOCCOCCOCCNC(=O)c2ccc([18F])nc2)ccc1NC(=O)C1NC(CC(C)(C)C)C(C#N)(c2ccc(Cl)cc2F)C1c1cccc(Cl)c1F (stereo not shown)
tracer uptake (HepG2 tumour model; host not given, muscle; 4 h, tumour-bearing): 0.39 %ID/g

CCC(=O)N(C)c1ccc(Cl)c(Cl)c1
revertants (Salmonella typhimurium; Ames test; TA1535; 1.00 mg/plate, without S9 activation): 13 ± 2.5 revertants/plate

O=C(O)CCC(NP(=O)(O)OCCC[C@@H](NC(=O)CCC(NC(=O)CCCCCNC(=O)c1ccc([18F])cc1)C(=O)O)C(=O)O)C(=O)O (stereo partly shown)
tracer uptake (CWR22Rv1 tumour model; host not given, liver; intravenous, 1 h, tumour-bearing): 0.49 %ID/g

N=C(N)NCCC[C@@H]1NC(=O)[C@H](CCCCNC(=O)CCOCCOCCOCCOCCNC(=O)CN2CCN(CC(=O)O)CCN(CC(=O)O)CCN(CC(=O)O)CC2)NC(=O)[C@@H](Cc2ccccc2)NC(=O)[C@H](CC(=O)O)NC(=O)CNC1=O [indium-111 labelled]
tumour to tissue ratio (athymic nude mice, female, U-87 MG glioma xenograft, tumour and lungs; intravenous, 24 h; baseline: tumour over lungs): 4.9 ± 1.02

CN[C@](C)(C[18F])C(=O)O
tracer uptake (DU-145 tumour model; host not given, kidney; 2 h, tumour-bearing): 4.2 %ID/g

COc1ccc(CNc2nc(N3CCC[C@H]3CO)ncc2C(=O)NN)cc1Cl
revertant count (Salmonella typhimurium; TA1535; 125 µg/plate, 48 h, together with: rat liver S9): 61 ± 3

CC[C@H](C)C(=O)N1CCC(NC(=O)Nc2ccc(OC(F)(F)F)c(F)c2)CC1
subjects with adverse events (healthy volunteers; oral, 8 mg, fasted): 7.7%

C[C@@](O)(C(F)F)[C@H](NC(=O)c1ccc(C#CC#CC2CC2)cc1)C(=O)NO
AUC(0-inf) (rat, plasma; intravenous, 40 mg/kg): 24000 ng·h/mL

N=C(N)NCCC[C@@H]1NC(=O)[C@H](CCCCNC(=O)CNC(=O)CNC(=O)CNC(=O)CC[C@H](NC(=O)CCOCCOCCOCCOCCNC(=O)CC[C@H](NC(=O)CN2CCN(CC(=O)O)CCN(CC(=O)O)CCN(CC(=O)O)CC2)C(=O)NCCOCCOCCOCCOCCC(=O)N[C@@H](CCC(=O)NCC(=O)NCC(=O)NCC(=O)NCCCC[C@@H]2NC(=O)[C@@H](Cc3ccccc3)NC(=O)[C@H](CC(=O)O)NC(=O)CNC(=O)[C@H](CCCNC(=N)N)NC2=O)C(=O)NCC(=O)NCC(=O)NCC(=O)NCCCC[C@@H]2NC(=O)[C@@H](Cc3ccccc3)NC(=O)[C@H](CC(=O)O)NC(=O)CNC(=O)[C@H](CCCNC(=N)N)NC2=O)C(=O)NCC(=O)NCC(=O)NCC(=O)NCCCC[C@@H]2NC(=O)[C@@H](Cc3ccccc3)NC(=O)[C@H](CC(=O)O)NC(=O)CNC(=O)[C@H](CCCNC(=N)N)NC2=O)NC(=O)[C@@H](Cc2ccccc2)NC(=O)[C@H](CC(=O)O)NC(=O)CNC1=O [indium-111 labelled]
tumour uptake (female athymic nude mouse, U-87 MG tumour; intravenous, 3 µCi, 0.5 h, U-87 MG glioma xenograft): 11.4 %ID/g
